Measurements gathered from unrelated publications.
“And” joins repeats or separate records; there may be more than shown. ± marks the error that the study gave.
Fibroin-modulator-binding protein-1: Fibroin-modulator-binding protein-1 99-193 (Bombyx mori, UniProt Q5FBS0)
HLA class I histocompatibility antigen, A alpha chain allele A*01:01: HLA class I histocompatibility antigen, A alpha chain, allele A*01:01 (Homo sapiens, UniProt P04439)

| Molecule | tested on | test | system | conditions | scale | measurement | result |
| --- | --- | --- | --- | --- | --- | --- | --- |
| secretory leukocyte protease inhibitor | p38 MAPK (mouse) | Western blot | RAW264.7 | 1 µg/mL |  | p38/β-actin ratio | decreased |
| PMESGICTIV | human SCRIB PDZ3-4 tandem (MBP fusion) | surface plasmon resonance | peptide | concentration not given | higher = stronger binding | normalised SPR binding response | 23.1 normalised RU |
| KKVVYFEFYE | UltraID biotin ligase, C-terminal fusion | biotinylation activity, inhibitor, streptavidin/HA fluorescence ratio | peptide, HEK-293T | concentration not given, 30 min, with: biotin 50 µM | reference: control | inhibition | > 75% |
| sevelamer carbonate | NEDD8-cullin 1 interaction | AlphaScreen |  | 100 µM |  | inhibition | -17.9% |
| GGGAGAACUUCGACCAGAAGGUUCAAAUCCCCGCACAUUACGUAACACUCGAACCCUACCUAUGUGCGCAUACAUGGAUCCUC (ssRNA; 2'-fluoro pyrimidines) | integrin alphaV/beta3 31-992/27-718 (Homo sapiens) | SPR | RNA | with: MnCl2 1 mM | higher = more binding | relative binding | 46.9 RU |
| Peginesatide | ERK5 (MAPK7) human | LC-MS/MS phosphoproteomics, refers to: ERK5 phosphotyrosine site 220 | UT7/EPO | 10 nM, 15 min, with: EPO 10 U/mL | reference: vehicle | phosphorylation fold change | 24.3 fold |
| SEKHFRETEV | human SCRIB PDZ3-4 tandem (MBP fusion) | automated holdup | peptide, purified PDZ protein | concentration not given, unit not given | reference: biotin control resin, higher = stronger binding | binding intensity | 0.983 |
| DNNHCSWLYGYWEWTLWGED | UltraID biotin ligase, C-terminal fusion | biotinylation activity, inhibitor, streptavidin/HA fluorescence ratio | peptide, HEK-293T | concentration not given, 30 min, with: biotin 50 µM | reference: control | inhibition | > 75% |
| colistin | Acinetobacter baumannii | broth microdilution | clinical isolate RKI-No_230/15 |  |  | MIC | ≤ 0.5 µg/mL |
| GACGGACGGACG (dsDNA) | Fibroin-modulator-binding protein-1 | ITC | double-stranded DNA, one strand shown |  |  | Kd | 2.62 ± 0.259 µM |
| KPGKGSETVV | human MAGI1-2/6 PDZ construct (MBP fusion) | automated holdup | peptide, crude extract | concentration not given, uncorrected, unit not given | reference: biotin control resin, higher = stronger binding | binding intensity | 0.561 |
| colesevelam | NEDD8-cullin 1 interaction | AlphaScreen |  | 100 µM |  | inhibition | 17.7% |
| GGGAGAACUUCGACCAGAAGUUGCAUUCCUGCGCCACAUUACGCGAAACGAUCCCCGCCUAUGUGCGCAUACAUGGAUCCUC (ssRNA; 2'-fluoro pyrimidines) | integrin alphaV/beta3 31-992/27-718 (Homo sapiens) | SPR | RNA | with: MnCl2 1 mM | higher = more binding | relative binding | 90.8 RU |
| GSGAGKETYY | human SCRIB PDZ3-4 tandem (MBP fusion) | surface plasmon resonance | peptide | concentration not given | higher = stronger binding | normalised SPR binding response | 0 normalised RU |
| Ubiquitin fragment (Homo sapiens) |  | NMR, refers to: Lys11 |  |  |  | pKa | 11.2 |
| AMNSLSLYI | HLA class I histocompatibility antigen, A alpha chain, allele A*02:01 (Homo sapiens, UniProt P04439) | peptide-MHC stability, brefeldin A chase | peptide, T2 cells |  |  | complex half-life | > 420 min |
| ITDFGRAK | HLA class I histocompatibility antigen, A alpha chain allele A*01:01 | conformational ELISA | peptide | concentration not given | reference: positive control peptide, direction not given | binding score | 0.8% |
| GEMVGQARILAQATSDLVNAIKDA | vinculin head domain Vd1 | complex rupture, AFM single-molecule force spectroscopy | peptide | single traces, C-terminal pulling, 800 nm/s |  | rupture force FWHM upper side | 14.1 pN |

| Molecule | tested on | test | system | conditions | scale | measurement | result |
| --- | --- | --- | --- | --- | --- | --- | --- |
| VVVGAAGVGK | HLA class I peptide complex | Western blot | peptide, 293T | 0 h, with: cycloheximide 100 µg/mL | reference: baseline | relative protein remaining | 1 |
| NPDALPETLV | human MAGI1-3/6 PDZ construct (MBP fusion) | automated holdup | peptide, crude extract | concentration not given, corrected by standard peak, unit not given | reference: biotin control resin, higher = stronger binding | binding intensity | 0.68 |
| AAAEGEMK | MsrA and MsrB | LC-MS/MS | peptide, actinonin-treated Escherichia coli proteome | 10 min, pH 7.5, 37 °C, with: MsrA 0.54 µM, MsrB 2.02 µM |  | fractional oxidation | 0.606 |
| CCCACCCACCCA (dsDNA) | Fibroin-modulator-binding protein-1 | ITC | double-stranded DNA, one strand shown |  |  | Kd | 4.14 ± 0.407 µM |
| KNKEKALII | HLA-B8 (human) | complex dissociation | peptide | 37 °C |  | t1/2 | 30 min |
| AAASMWR | MsrA and MsrB | LC-MS/MS | peptide, actinonin-treated Escherichia coli proteome | 20 min, pH 7.5, 37 °C, with: MsrA 0.54 µM, MsrB 2.02 µM |  | fractional oxidation | 0.396 |
| GSGAGRETEV | human MAGI1-2/6 PDZ construct (MBP fusion) | automated holdup | peptide, crude extract | concentration not given, corrected by standard peak, unit not given | reference: biotin control resin, higher = stronger binding | binding intensity | 0.303 |
| enoxaparin sodium | NEDD8-cullin 1 interaction | AlphaScreen |  | 100 µM |  | inhibition | -40% |
| FVTI | mouse H2-Dd S73C/human β2m | thermal stability rescue, DSF | peptide | 20-fold molar excess, pH 7.2, peptide-deficient, with: TCEP 1 mM |  | Tm | 36.3 ± 0.2 °C |
| Pam2CSK4 | TLR2 | agonist, RT-qPCR, refers to: Msr1 | BV-2 | 1.0 µM | reference: untreated cells | relative mRNA level | 2.25 and 1.42 and 2.11 |
| maraviroc | GSK-3α |  | mice, NSG hu-PBL, HIV-infected, brain FC region | ip, 120 mg/kg twice daily, 3 weeks post-infection, GSK-3α, total, normalized to | reference: untreated HIV-infected mice | phospho-GSK-3α decrease | 3.42 fold |
| KDECVIATEV | human SCRIB PDZ3-4 tandem (MBP fusion) | automated holdup | peptide, purified PDZ protein | concentration not given, unit not given | reference: biotin control resin, higher = stronger binding | binding intensity | 0.206 |
| MQLMPFGCLL | HLA class I histocompatibility antigen, A alpha chain allele A*01:01 | conformational ELISA | peptide | concentration not given | reference: positive control peptide, direction not given | binding score | 0.3% |
| Pam3CSK4 | TLR2 | agonist, RT-qPCR, refers to: Marco | BV-2 | 1.0 µM | reference: untreated cells | relative mRNA level | 2.18 and 1.69 and 2.34 |
| NRVDSKETEC | human MAGI1-2/6 PDZ construct (MBP fusion) | automated holdup | peptide, purified PDZ protein | concentration not given, unit not given | reference: biotin control resin, higher = stronger binding | binding intensity | -0.183 |
| chondroitin sulfate C | SAR11_0271 Candidatus Pelagibacter | binding, DSF |  | single replicate screen |  | thermal shift | 2.15 °C |
| ILEAAKSIAAATSALVKAASAAQRE | vinculin head domain Vd1 | complex rupture, AFM single-molecule force spectroscopy | peptide | single traces, C-terminal pulling, 800 nm/s |  | rupture force FWHM lower side | 20.5 pN |
